Results collected from several papers.
Compare with care: the assays were run in different laboratories. Numbers after ± are the reported error.
AR: Androgen receptor (AR, Homo sapiens, UniProt P10275)
Chain of UniProt P10275 (whole entry, unmodified, looked up): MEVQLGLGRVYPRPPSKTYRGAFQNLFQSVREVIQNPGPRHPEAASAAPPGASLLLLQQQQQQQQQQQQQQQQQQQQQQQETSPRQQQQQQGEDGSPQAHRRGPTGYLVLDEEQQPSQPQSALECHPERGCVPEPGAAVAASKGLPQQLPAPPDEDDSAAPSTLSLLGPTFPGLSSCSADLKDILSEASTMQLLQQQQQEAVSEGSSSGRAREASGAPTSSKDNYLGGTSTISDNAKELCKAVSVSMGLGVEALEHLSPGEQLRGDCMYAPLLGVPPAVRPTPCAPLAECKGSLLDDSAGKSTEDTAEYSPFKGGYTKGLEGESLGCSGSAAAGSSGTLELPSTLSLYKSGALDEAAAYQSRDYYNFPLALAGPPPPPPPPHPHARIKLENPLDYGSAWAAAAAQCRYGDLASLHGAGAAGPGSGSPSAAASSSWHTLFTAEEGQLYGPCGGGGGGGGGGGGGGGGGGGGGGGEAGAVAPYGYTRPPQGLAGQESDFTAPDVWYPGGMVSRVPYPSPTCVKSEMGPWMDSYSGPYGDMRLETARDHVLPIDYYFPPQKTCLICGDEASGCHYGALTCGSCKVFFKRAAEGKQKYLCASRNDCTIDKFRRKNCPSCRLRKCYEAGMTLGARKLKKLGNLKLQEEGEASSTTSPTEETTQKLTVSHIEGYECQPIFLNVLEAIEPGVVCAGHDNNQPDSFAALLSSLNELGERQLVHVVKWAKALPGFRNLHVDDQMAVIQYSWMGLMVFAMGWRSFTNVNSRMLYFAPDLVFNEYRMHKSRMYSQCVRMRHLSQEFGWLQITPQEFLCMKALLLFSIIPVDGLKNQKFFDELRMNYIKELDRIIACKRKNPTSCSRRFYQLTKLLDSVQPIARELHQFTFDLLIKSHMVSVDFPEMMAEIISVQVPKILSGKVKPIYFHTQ

Compound	target	test	test system	conditions	endpoint	result
C[C@H](CCC(=O)O)[C@H]1CC[C@H]2[C@@H]3CC=C4CC(=O)CC[C@]4(C)[C@H]3CC[C@]12C	AR	reporter gene, antagonist, luciferase reporter	cells expressing human AR	added: 45 pM agonist	IC50	0.119 µM
Clc1ccc(COC(Cn2ccnc2)c2ccc(Cl)cc2Cl)c(Cl)c1 (stereo not drawn)	AR	–	human cells	–	IC50	1.22 µM
CC1(C(F)(F)F)NC(=O)N(c2ccc(F)c(C(F)(F)F)c2)C1=O (stereo not drawn)	AR	reporter gene, antagonist	LAPC4	24 h, added: DHT 10 nM	IC50	5.2 µM
C[C@]12CC[C@@H]3c4ccc(O)cc4C[C@@H](CCCCCCCCC[S+]([O-])CCCC(F)(F)C(F)(F)F)[C@H]3[C@@H]1CC[C@@H]2O (stereo partly drawn)	AR	antagonist, cell-based	–	–	IC50	> 10 µM
CC1(C)NC(=O)N(c2ccc(F)c(F)c2)C1=O	AR	reporter gene, antagonist	LAPC4	24 h, added: DHT 10 nM	IC50	8.3 µM
O=C1NC(=O)c2cc(Nc3ccccc3)c(Nc3ccccc3)cc21	Androgen receptor (AR, Homo sapiens, UniProt P10275, Q868H)	antagonist	–	added: R1881 2 nM	IC50	19.3 ± 4.42 µM
CC1(C(F)F)NC(=O)N(c2ccc(F)c(C(F)(F)F)c2)C1=O (stereo not drawn)	AR	reporter gene, antagonist	LAPC4	24 h, added: DHT 10 nM	IC50	4.2 µM
CCCCCCOC(=O)c1ccccc1C(=O)c1ccc(N(CC)CC)cc1O	AR	reporter gene, agonist	–	–	EC50	> 100 µM
CC(=O)N1CCN(CCOc2ccc(C3CCN(C4=Nn5c(nnc5C(F)(F)F)CC4)CC3)cc2)CC1	AR	antagonist, nuclear translocation	–	primary screen, top 100 µM	IC50	10.9 µM

Repeated from above:
Compound	target	test	test system	conditions	endpoint	result
CC1(C(F)F)NC(=O)N(c2ccc(F)c(C(F)(F)F)c2)C1=O (stereo not drawn)	AR	reporter gene, antagonist	LAPC4	24 h, added: DHT 10 nM	IC50	4.2 µM
